Assay results of several laboratories.
Protocols differ between the studies behind these lines. “And” joins repeats or separate records; there may be more than shown. Numbers after ± are the reported error.
ALPL: Alkaline phosphatase, tissue-nonspecific isozyme (ALPL, Homo sapiens, UniProt P05186)
Genome polyprotein NS2B-NS3 protease: Genome polyprotein, NS2B-NS3 protease (ZIKV, UniProt A0A024B7W1)
Proteasome component C5/PSMB5 chymotrypsin-like site: Proteasome component C5/PSMB5, chymotrypsin-like site (Homo sapiens, UniProt P20618+P28074)

| Molecule | tested on | assay | test system | conditions | measurement | value |
| --- | --- | --- | --- | --- | --- | --- |
| C=CC[N+]1([C@H]2C[C@H]3[C@@H]4CC[C@H]5C[C@H](O)[C@@H](N6CCOCC6)C[C@]5(C)[C@H]4CC[C@]3(C)[C@H]2OC(C)=O)CCCC1 | Chrnd/Chrna1/Chrne (Mus musculus, UniProt P02716+P04756+P20782) | ion current, competitive antagonist, outside-out patch clamp | – | pH 7.3, holding -50 mV, peak current, added: 300 µM acetylcholine | IC50 | 0.0225 µM |
| COc1ccc(C)cc1S(=O)(=O)Nc1cccnc1 | ALPL | enzyme activity, inhibitor, colorimetric OD405 | – | resynthesised dry powder, added: 0.5 mM pNPP | IC50 | 0.825 µM |
| NCCNc1nc(OCC2CCNCC2)cnc1-c1ccc(CN)cc1 | Genome polyprotein NS2B-NS3 protease | inhibitor | Zika virus | – | IC50 | 7.3 µM |
| CC[C@H](C)[C@H](NC(=O)[C@H](CO)NC(=O)[C@H](Cc1ccc(O)cc1)NC(=O)[C@H](CC(=O)O)NC(=O)[C@H](CO)NC(=O)[C@@H](NC(=O)[C@@H](O)Cc1ccccc1)[C@@H](C)CC)C(=O)N[C@@H](C)C(=O)N[C@@H](CC(C)C)C(=O)N[C@@H](CC(=O)O)C(=O)N[C@@H](CCCCN)C(=O)N[C@H](C(=O)N[C@@H](CCCNC(=N)N)C(=O)N[C@@H](CCC(N)=O)C(=O)N[C@@H](CCC(N)=O)C(=O)N[C@@H](CCC(=O)O)C(=O)N[C@@H](Cc1ccccc1)C(=O)N[C@H](C(=O)N[C@@H](CC(N)=O)C(=O)N[C@@H](Cc1c[nH]c2ccccc12)C(=O)N[C@@H](CC(C)C)C(=O)N[C@@H](CC(C)C)C(=O)N[C@@H](C)C(=O)N[C@@H](CCC(N)=O)C(=O)N[C@@H](CCCCN)C(=O)NCC(=O)O)C(C)C)[C@@H](C)CC | Gastric inhibitory polypeptide receptor (Mus musculus, UniProt Q0P543) | cAMP response, antagonist, CRE-luciferase reporter | BHK | 3 h, 37 °C, added: 50 pM GIP | IC50 | 0.334 µM |
| COc1ccc(C[C@H](NC(=O)[C@H](C)NC(=O)OCc2ccccc2)C(=O)N[C@@H](CC(C)C)C(=O)C(=O)Nc2ccccc2)cc1 | Proteasome component C5/PSMB5 chymotrypsin-like site | enzyme activity in cells, inhibitor | – | – | IC50 | 1.03 µM |
| C[C@@H]1NC(=O)[C@H](CCCNC(=N)N)NC(=O)[C@H]([C@@H](C)O)NC(=O)[C@@H](NC(=O)[C@H](CCC(N)=O)NC(=O)[C@H](Cc2ccccc2)NC(=O)[C@@H]2CCCN2)CSSC[C@@H](C(=O)N[C@H](C(=O)N[C@@H](CCCCN)C(=O)N[C@@H](CO)C(=O)O)[C@@H](C)O)NC(=O)[C@H](Cc2ccc(O)cc2)NC(=O)[C@H](Cc2ccc(O)cc2)NC(=O)[C@H](Cc2c[nH]c3ccccc23)NC(=O)CNC(=O)[C@H](CC(=O)O)NC(=O)[C@H](CCCNC(=N)N)NC1=O | Activin receptor type-2B (ACVR2B, Homo sapiens, UniProt Q13705) | reporter gene, antagonist, measured: Smad2/3 | HEK293T | 4 h, added: activin A 0.33 ng/mL | IC50 | > 100 µM |
| O=S(=O)(O)Oc1ccc(-c2ccc(Cl)cc2)cc1 | Sulfotransferase 1E1 (SULT1E1, Homo sapiens, UniProt P49888) | enzyme activity, inhibitor, radiometric | – | pH 7.4 | IC50 | > 10 µM |
| CC(C)C[C@H](NC(=O)OCc1ccccc1)C(=O)N[C@@H](Cc1c[nH]c2ccccc12)C(=O)N[C@@H](CC(C)C)C(=O)C(=O)Nc1cccc2ccccc12 | Proteasome component C5/PSMB5 chymotrypsin-like site | enzyme activity in cells, inhibitor | – | – | IC50 | 0.165 µM |
| COc1cc([C@@H]2c3cc4c(cc3[C@H](O)[C@H]3COC(=O)[C@H]23)OCO4)cc(OC)c1OC | tubulin alpha/beta (Leishmania infantum, UniProt A0A381MCS3+A4HTR0) | tubulin polymerization, inhibitor | – | 37 °C | IC50 | 0.3 µM and 0.32 µM |
| O=C(O)c1ccccc1-c1c2ccc(=O)c([As]3SCCS3)c-2oc2c([As]3SCCS3)c(O)ccc12 | Tyrosine-protein phosphatase non-receptor type 1 (PTPN1, Homo sapiens, UniProt P18031, P87C) | enzyme activity, inhibitor | crude Escherichia coli lysate | 120 min, 37 °C, added: pNPP | IC50 | 2.8 µM |
| CNCCCNC(=O)O[C@H]1CC[C@@]2(C)[C@H](CC[C@@H]3[C@@H]2CC[C@]2(C)[C@@H](c4ccc(=O)oc4)CC[C@]32O)C1 | Atp1a2, with beta-1 subunit (Rattus norvegicus, UniProt P06686) | pump current, inhibitor, two-electrode voltage clamp | Xenopus oocytes expressing β1 | -60 mV | IC50 | 0.283 µM |
| Cc1ccccc1-n1cc(COc2ccnc3cc(Cl)ccc23)nn1 | FP2A (Plasmodium falciparum, UniProt Q8I6U4) | enzyme activity, inhibitor, fluorescence | – | pH 5.5, with preincubation | IC50 | 20.9 µM |
| CC1=NN(c2ccccc2)C(=S)/C1=C/Nc1c(Br)cc(Br)cc1Br | srtA (Staphylococcus aureus, UniProt Q2FV99) | enzyme activity, inhibitor | – | – | IC50 | < 5 µM |
| Ruthenium red | Piezo-type mechanosensitive ion channel component 1 (Piezo1, Mus musculus, UniProt E2JF22) | mechanically activated current, pore blocker, whole-cell patch clamp | – | room temperature, -80 mV holding, voltage-dependent open-channel block | IC50 | 5.4 ± 0.9 µM |
| CC(C)(C)CC(C)(C)c1ccc(OC(=O)c2ccccc2)cc1 | DNA topoisomerase 1 (topA, Escherichia coli, UniProt P06612) | enzyme activity, inhibitor | – | – | IC50 | > 250 µM |
| COc1cc(-c2nc3cc4nc5ccccc5nc4cc3[nH]2)cc(OC)c1OC | Genome polyprotein, protease (dengue virus type 2, UniProt P29990) | enzyme activity, inhibitor, fluorescence | – | pH 8.5 | IC50 | 136 µM |
| Oc1ccc(-c2c[se]cc2-c2ccc(O)cc2)cc1 | Estrogen receptor beta (ESR2, Homo sapiens, UniProt Q92731) | antagonist | HEK293T | added: estradiol 10 nM | IC50 | 0.475 µM |

| Molecule | tested on | assay | test system | conditions | measurement | value |
| --- | --- | --- | --- | --- | --- | --- |
| COc1ccc(CC2NCCc3c2[nH]c2ccc(C)cc32)c(Cl)c1OC (stereo not shown) | 5-hydroxytryptamine receptor 2B (HTR2B, Homo sapiens, UniProt P41595) | – | – | – | IC50 | 0.078 µM |
| CN1CCN(CCOc2ccc(Cl)cc2C(=O)Nc2ccc([N+](=O)[O-])cc2Cl)CC1 | Genome polyprotein, NS2B-NS3 interaction (dengue virus type 2, UniProt P29990) | NS2B-NS3 interaction, inhibitor, split luciferase complementation | dengue virus 2 | – | IC50 | 13.2 µM |
| O=C(O)c1cc(-c2ccccc2Cl)n[nH]1 | ALPL | enzyme activity, inhibitor, luminescence | – | added: 50 µM CDP-star, 100 mM DEA | IC50 | 0.303 ± 0.009 µM |
| O=C([O-])c1ccccc1-c1c2cc(Br)c(=O)cc-2oc2[c]([Hg+])c([O-])c(Br)cc12.[Na+].[Na+].[OH-] | Dual specificity protein phosphatase 5 (Homo sapiens, UniProt Q16690) | phosphatase activity | – | 60 min, 1 mM DTT, added: pNPP | IC50 | 19.7 ± 0.6 µM |
| Cc1c(P(=S)(c2ccccc2)c2ccccc2)n2ccccc2[n+]1C/C=C/c1ccc(Cl)cc1 | Neuropeptide S receptor (NPSR1, Homo sapiens, UniProt Q6W5P4) | calcium signal, antagonist | – | – | IC50 | 0.0071 µM |
| CC(C)C[C@H](NC(=O)CN)C(=O)N[C@@H](CC(=O)O)C(=O)N[C@@H](Cc1c[nH]c2ccccc12)C(=O)N[C@@H](Cc1c[nH]c2ccccc12)C(=O)N[C@@H](CO)C(=O)N[C@@H](C)C(=O)O | Transcriptional regulator ComR (Streptococcus mutans serotype c, UniProt Q8DWI6) | – | Streptococcus mutans | – | IC50 | > 50 µM |
| NCCc1ccc(O)c(O)c1 | Sodium-dependent noradrenaline transporter (Mus musculus, UniProt O55192) | – | – | – | IC50 | ~13 µM and 12.7 µM |
| O=C([O-])c1ccccc1-c1c2cc(Br)c(=O)cc-2oc2[c]([Hg+])c([O-])c(Br)cc12.[Na+].[Na+].[OH-] | Histone-lysine N-methyltransferase EHMT1 (EHMT1, Homo sapiens, UniProt Q9H9B1) | enzyme activity, inhibitor | – | – | IC50 | 42.9 µM |
| CN1C(=O)[C@]23SS[C@@]1(C)C(=O)N2[C@H]1Nc2ccccc2[C@@]1([C@@]12c4ccccc4N[C@@H]1N1C(=O)[C@@]4(C)SS[C@]1(C(=O)N4C)[C@H]2O)[C@@H]3O | Histone-lysine N-methyltransferase 2A (KMT2A, Homo sapiens, UniProt Q03164) | enzyme activity, inhibitor, radiometric | – | – | IC50 | 3.08 µM |
| CCCc1nn(C)c2c(=O)[nH]c(-c3cc(S(=O)(=O)N4CCN(C)CC4)ccc3OCC)nc12 | Solute carrier organic anion transporter family member 1B3 (SLCO1B3, Homo sapiens, UniProt Q9NPD5) | transport, inhibitor | – | 10 (unit not given), pre-incubation, added: cholecystokinin | IC50 | 12.8 ± 0.04 µM |
| COC(=O)[C@@]1(O)C[C@H]2O[C@]1(C)n1c3ccccc3c3c4c(c5c6ccccc6n2c5c31)C(=O)NC4 | Proteasome Macropain subunit MB1 (PSMB5, Homo sapiens, UniProt P28074) | enzyme activity | – | added: Suc-LLVY-AMC substrate, ATP | IC50 | 9.2 ± 3.1 µM |
| CN[C@@](C)(C[18F])C(=O)O | DU-145 tumour model | – | host not given, liver | 2 h, tumour-bearing | tracer uptake | 4.3 %ID/g |
| OCCBr | Cys-loop ligand-gated ion channel (Dickeya chrysanthemi, UniProt P0C7B7) | ion current, inhibitor | Xenopus oocytes | added: EC20 agonist | IC50 | 11500 ± 400 µM |
| CC[C@H](C)[C@H](NC(=O)[C@H](CCSC)NC(=O)[C@@H](N)Cc1ccccc1)C(=O)N[C@@H](C)C(=O)N[C@@H](Cc1ccccc1)C(=O)N[C@H](C(=O)N[C@@H](CO)C(=O)N[C@@H](CS)C(=O)N[C@@H](Cc1ccccc1)C(=O)N[C@@H](C)C(=O)O)[C@@H](C)CC | HLA class I histocompatibility antigen, A alpha chain, allele A*02:03 (Homo sapiens, UniProt P04439) | peptide binding, radiolabelled peptide competition | – | added: radiolabelled standard peptide | IC50 | 0.056 µM |
| CCOP(=O)(OCC)Oc1cc(C)nc(C(C)C)n1 | rat liver carboxylesterase | enzyme activity, inhibitor | rat, postnatal day 12, liver homogenate | added: p-nitrophenyl valerate | IC50 | 0.0003 µM |
| CC(=O)NCc1ccc(-c2ncc(OCC3CCNCC3)nc2-c2ccc(CNC(C)=O)cc2)cc1 | Genome polyprotein NS2B-NS3 protease | inhibitor | Zika virus | – | IC50 | > 10 µM |
| O=[N+]([O-])CC1C(c2ccc3ccccc3n2)=CN(Cc2ccc(Cl)cc2)c2ccccc21 (stereo not shown) | virF (Shigella flexneri, UniProt P0A2T1) | reporter gene expression, inhibitor | Escherichia coli, virB-lacZ reporter strain | 3 h, 37 °C, 6.2% DMSO, added: 1 mM IPTG | IC50 | 80 µM |
